Measurements from different studies.
Compare with care: the assays were run in different laboratories.
Target: Serine/threonine-protein kinase MRCK gamma (CDC42BPG, Homo sapiens, UniProt Q6DT37)
UniProt Q6DT37, sequence (whole entry, looked up): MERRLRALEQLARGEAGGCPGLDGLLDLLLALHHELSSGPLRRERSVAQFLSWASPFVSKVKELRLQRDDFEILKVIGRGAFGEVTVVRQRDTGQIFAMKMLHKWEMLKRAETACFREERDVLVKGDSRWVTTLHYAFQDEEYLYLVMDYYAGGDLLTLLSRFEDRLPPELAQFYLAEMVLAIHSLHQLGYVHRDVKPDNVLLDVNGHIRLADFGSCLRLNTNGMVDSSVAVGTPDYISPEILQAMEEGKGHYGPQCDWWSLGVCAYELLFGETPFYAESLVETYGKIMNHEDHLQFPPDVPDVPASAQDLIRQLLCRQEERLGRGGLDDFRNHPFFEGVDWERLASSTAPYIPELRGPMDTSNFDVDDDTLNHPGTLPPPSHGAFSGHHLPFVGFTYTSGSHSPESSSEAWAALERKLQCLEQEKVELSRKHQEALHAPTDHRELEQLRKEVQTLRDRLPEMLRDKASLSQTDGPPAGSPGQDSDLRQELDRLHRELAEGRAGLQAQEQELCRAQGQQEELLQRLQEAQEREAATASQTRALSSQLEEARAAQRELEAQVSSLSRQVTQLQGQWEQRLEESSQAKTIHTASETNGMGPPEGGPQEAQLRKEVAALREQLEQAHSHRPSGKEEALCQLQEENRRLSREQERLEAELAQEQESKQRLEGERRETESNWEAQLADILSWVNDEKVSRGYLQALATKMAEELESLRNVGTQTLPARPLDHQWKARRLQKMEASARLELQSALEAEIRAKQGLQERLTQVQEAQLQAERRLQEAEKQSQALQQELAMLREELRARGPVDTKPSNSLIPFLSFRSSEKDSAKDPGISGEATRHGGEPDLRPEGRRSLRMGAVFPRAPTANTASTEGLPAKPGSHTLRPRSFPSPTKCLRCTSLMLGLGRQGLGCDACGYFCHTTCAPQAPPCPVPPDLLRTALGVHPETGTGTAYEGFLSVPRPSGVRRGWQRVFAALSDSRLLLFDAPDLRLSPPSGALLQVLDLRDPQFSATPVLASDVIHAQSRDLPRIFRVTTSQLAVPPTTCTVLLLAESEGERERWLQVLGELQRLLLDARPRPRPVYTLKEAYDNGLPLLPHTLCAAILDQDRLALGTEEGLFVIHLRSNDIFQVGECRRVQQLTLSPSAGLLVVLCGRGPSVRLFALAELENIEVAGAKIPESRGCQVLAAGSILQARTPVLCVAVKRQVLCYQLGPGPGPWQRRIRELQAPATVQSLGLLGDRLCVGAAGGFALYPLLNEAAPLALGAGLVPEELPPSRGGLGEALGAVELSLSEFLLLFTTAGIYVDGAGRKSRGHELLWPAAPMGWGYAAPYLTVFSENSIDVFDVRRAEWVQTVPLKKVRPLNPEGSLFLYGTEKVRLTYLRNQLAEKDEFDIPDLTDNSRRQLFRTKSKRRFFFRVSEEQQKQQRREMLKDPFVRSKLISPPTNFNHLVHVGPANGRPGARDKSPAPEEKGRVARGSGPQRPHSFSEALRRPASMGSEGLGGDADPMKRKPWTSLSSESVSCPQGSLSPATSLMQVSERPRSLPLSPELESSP

| Structure (SMILES) | test | setting | how to read | endpoint | value |
| --- | --- | --- | --- | --- | --- |
| COc1cnc(Nc2cccc(S(N)(=O)=O)c2)nc1N1CCN(c2ccccc2)CC1 | KINOMEscan | 1 µM |  | remaining binding | 100% |
| C=CC(=O)N1CCC(C(=O)NCC(=O)N2CCN(c3nc(-c4cnc(N)nc4C(F)F)nc(N4CCOCC4)n3)CC2)CC1 | KINOMEscan | 1 µM |  | remaining binding | 100% |
| COc1cnc(Nc2cccc(S(N)(=O)=O)c2)nc1N1CCN(c2ccccc2)C(=O)C1 | KINOMEscan | 1 µM |  | remaining binding | 100% |
| CC(C)(O)[C@H]1CC[C@H](Nc2ccc3ncc(-c4cccc(C(F)(F)F)c4)n3n2)CC1 | enzyme activity, inhibitor | 1 µM, with: 10 µM ATP | reference: DMSO | remaining activity | 110% |
| c1cncc(-c2cccc(Nc3nccc(NC4CCCCC4)n3)c2)c1 | KINOMEscan | 10 µM |  | remaining binding | 100% |
| Nc1ncc2c(n1)-c1c([nH]c3ccc(C#CC4CC4)cc13)CCCC2 | scanMAX | 1 µM |  | remaining binding | 89% |
| O=C(NCCCN1CCOCC1)c1ccc(Nc2nccc(-c3cc4ccccc4s3)n2)cc1 | binding, KINOMEscan competition binding | 1 µM | reference: DMSO control | remaining binding | 100% |
| Cn1c2c(Cl)c(Cl)ccc2c2cn[nH]c(=O)c21 | thermal shift | 10 µM, 2 µM protein | higher = stronger binding | ΔTm | -0.7 °C |
| O=C(NC1CCC1)c1ccc2nc(-c3cccc(NS(=O)(=O)NCCN4CCCCC4)c3)cn2c1 | enzyme activity | 10 µM |  | remaining activity | 100% |
| Cn1c2c(c3ccc(Cl)c(Cl)c31)C(C#N)C(C)(C)NC2=O (stereo not shown) | thermal shift | 10 µM, 2 µM protein | higher = stronger binding | ΔTm | -1.2 °C |
| CCN1CCN(Cc2ccc(C(=O)Nc3ccc(C)c(Oc4ccc5c(c4)CC(=O)N5)c3)cc2C(F)(F)F)CC1 | KINOMEscan | 1 µM |  | remaining binding | 100% |
| O=C(NCC1CCOCC1)c1n[nH]cc1NC(=O)c1c(F)cccc1F | scanMAX | 1 µM | reference: untreated | remaining binding | 98% |
| O=C(NCCCN1CCOCC1)c1ccc(Nc2ncc(Cl)c(-c3ccc(Cl)s3)n2)cc1 | binding, KINOMEscan competition binding | 1 µM | reference: DMSO control | remaining binding | 87% |
| Cn1c2c(c3ccc(Cl)c(Cl)c31)C(C#N)C1(CCOCC1)NC2=O (stereo not shown) | thermal shift | 10 µM, 2 µM protein | higher = stronger binding | ΔTm | -0.9 °C |
| O=C(c1ccc(Nc2ncc(Cl)c(-c3cc4ccccc4s3)n2)cc1)N1CCC(N2CCCC2)CC1 | binding, KINOMEscan competition binding | 1 µM | reference: DMSO control | remaining binding | 43% |
| CCC1(CC)NC(=O)c2c(c3ccc(Cl)c(Cl)c3n2C)C1C#N (stereo not shown) | thermal shift | 10 µM, 2 µM protein | higher = stronger binding | ΔTm | -1 °C |

Some of these lines once more:
| Structure (SMILES) | test | setting | how to read | endpoint | value |
| --- | --- | --- | --- | --- | --- |
| C=CC(=O)N1CCC(C(=O)NCC(=O)N2CCN(c3nc(-c4cnc(N)nc4C(F)F)nc(N4CCOCC4)n3)CC2)CC1 | KINOMEscan | 1 µM |  | remaining binding | 100% |
